# Measurements collected from several papers.
# Values joined by “and” are separate records of one study, mostly repeats; a detail may differ. ± marks the error that the study gave.
# HLA class I histocompatibility antigen, A alpha chain allele A*02:01: HLA class I histocompatibility antigen, A alpha chain, allele A*02:01 (Homo sapiens, UniProt P04439)
Structure (SMILES),tested on,assay,system,conditions,scale,measurement,value
c1ccc(C(NCCNC(c2ccccc2)c2ccccc2)c2ccccc2)cc1,"sigma receptor, guinea pig",binding,,"10 µM, Eurofins selectivity panel",,inhibition,70%
C[C@H]1O[C@@H](O[C@H]2CC[C@@]3(C)[C@@H](CC[C@]4(C)[C@@H]3C=C[C@]35OC[C@@]6(CCC(C)(C)C[C@H]63)[C@@H](O)C[C@]54C)[C@]2(C)CO)[C@H](O)[C@@H](O[C@@H]2O[C@H](CO)[C@@H](O)[C@H](O)[C@H]2O)[C@H]1O,,"Western blot, item: PPAR-α","mouse, hepatic SIRT1 knockdown (AAV8-TBG), liver","dose not given, high dose, unit not given, together with: ethanol",relative to: β-actin,protein level,0.219 and 0.212 and 0.328
CC[C@H](C)[C@H](NC(=O)[C@H](C)NC(=O)[C@H](CCCCN)NC(=O)[C@H](CC(C)C)NC(=O)[C@H](C)NC(=O)[C@@H](NC(=O)[C@H](Cc1c[nH]cn1)NC(=O)[C@H](CC(C)C)NC(=O)[C@@H](NC(=O)[C@@H](NC(=O)[C@H](CCCCN)NC(=O)[C@H](C)NC(=O)[C@H](C)NC(=O)[C@H](CO)NC(=O)[C@H](CCCCN)NC(=O)[C@H](Cc1ccccc1)NC(=O)[C@@H](NC(=O)[C@H](CCCCN)NC(=O)[C@H](CC(C)C)NC(=O)[C@H](Cc1ccccc1)NC(=O)[C@H](CO)NC(=O)[C@H](CCCCN)NC(=O)[C@H](Cc1c[nH]c2ccccc12)NC(=O)[C@H](CCCCN)NC(C)=O)[C@@H](C)O)[C@@H](C)O)C(C)C)[C@@H](C)O)C(=O)N[C@@H](CO)C(=O)N[C@@H](CO)C(N)=O,Enterobacter cloacae,,,40 strains,,MIC90,16 µg/mL
CC[C@H](C)[C@@H]1NC(=O)[C@@H]2CCCN2C(=O)[C@H](CC(C)C)NC(=O)[C@H](CC(C)C)NC(=O)CNC(=O)[C@@H](NC(=O)[C@@H](NC(=O)[C@H](CC(=O)O)NC(=O)CNC(=O)[C@@H](NC(=O)[C@H](C)NC(=O)CNC(=O)[C@H](CCCCN)NC(=O)[C@H](CC(C)C)NC(=O)[C@H](CC(C)C)NC(=O)[C@H](CCCCN)NC(=O)CNC(=O)[C@@H](NC(=O)[C@@H](N)CC(C)C)C(C)C)C(C)C)C(C)C)CSSC[C@@H](C(=O)O)NC1=O,,"RNA-seq, item: Ier3","mouse, traumatic brain injury model, frontal cortex and hippocampus",dose not given,relative to: TBI alone,log2 fold change,-2.06
CCOc1cn(-c2ccc(F)cc2C)nc1C(=O)Nc1ccc(Oc2ccnc3cc(OC)c(OC)cc23)c(F)c1,murine hepatitis virus,"viral replication, nanoluciferase reporter",DBT,1 µM,relative to: DMSO vehicle,inhibition,19%
N=C(N)NCCC[C@@H]1NC(=O)[C@H](CCCCNC(=O)c2ccc(CNC34CNCCNCC(N)(CNCCNC3)CNCCNC4)cc2)NC(=O)[C@@H](Cc2ccc(O)cc2)NC(=O)[C@H](CC(=O)O)NC(=O)CNC1=O [copper-64 labelled],,ex vivo biodistribution,"male athymic nude mouse, PC-3 tumour, intestine","7.4 MBq, 48 h",,tissue uptake,1.6 ± 0.51 %ID/g
COc1c(CCC[P+](c2ccccc2)(c2ccccc2)c2ccccc2)cc2c(c1OC)OCO2.[I-],HL-60(TB),SRB,,,,Log10TGI,-5.83 log M
CN1CC[C@]23c4c5ccc(O)c4O[C@H]2[C@@H](OS(=O)(=O)O)C=C[C@H]3[C@H]1C5,,hot water tail withdrawal test,normal Sprague-Dawley rats,"ip, 1 mg/kg",,peak increase in tail withdrawal latency,4.3 ± 0.3 s
COc1cc(CCC[P+](c2ccccc2)(c2ccccc2)c2ccccc2)c(OC)c2c1OCO2.[I-],M14,SRB,,,,GI50,-5.75 log M
COc1ccc(-n2nc(C(C)=O)s/c2=N\N=C(/C)c2ccc(NC(C)=O)cc2)cc1,HepG2,,,2.5 µM,,viability,5.68%
CSCC[C@H](NC(=O)[C@H](Cc1c[nH]cn1)NC(=O)[C@H](Cc1ccccc1)NC(=O)[C@@H]1CCCN1C(=O)[C@H](CCCCN)NC(=O)[C@H](CCC(=O)O)NC(=O)[C@H](Cc1c[nH]c2ccccc12)NC(=O)[C@H](CC(C)C)NC(=O)[C@@H](N)CCCNC(=N)N)C(=O)O,"HLA class I histocompatibility antigen, A alpha chain allele A*02:01",binding,,,,IC50,0.992 µM
O=C(NNc1cc(F)ccc1F)c1nnc(C23CC4CC(CC(C4)C2)C3)o1,Fusarium graminearum,"fungal growth, inhibitor",,,,EC50,4.41 ± 0.4 µg/mL
CC(C)[C@H](NC(=O)[C@@H](N)Cc1ccc(O)cc1)C(=O)N[C@@H](Cc1ccc(O)cc1)C(=O)N[C@@H](CCC(N)=O)C(=O)N[C@@H](Cc1c[nH]cn1)C(=O)N1CCC[C@H]1C(=O)N[C@@H](Cc1c[nH]cn1)C(=O)N[C@H](C(=O)N[C@@H](Cc1ccc(O)cc1)C(=O)O)[C@@H](C)O,"HLA class I histocompatibility antigen, A alpha chain allele A*02:01",binding,,,,IC50,48.4 µM
COc1cc2c(Oc3ccc4[nH]c(C)cc4c3F)ccnc2cc1OCC1(N)CC1,,,paediatric refractory sarcoma patients,12 mg,,abdominal distension incidence,9.1%

# Repeated from above:
Structure (SMILES),tested on,assay,system,conditions,scale,measurement,value
c1ccc(C(NCCNC(c2ccccc2)c2ccccc2)c2ccccc2)cc1,"sigma receptor, guinea pig",binding,,"10 µM, Eurofins selectivity panel",,inhibition,70%
